Experimental data from different studies.
A part holds a random share of what one study measured. Substitutions count along the parent as printed.

Sample 1
Target: ABI1, truncated, D143A, DHFR fusion (Arabidopsis thaliana)
Technique: DHFR PCA, deep sequencing
Matrix: yeast
Notes: methotrexate growth selection, single substitutions
Together with: (+)-ABA 200 µM
Relative to: wild-type fitted maximum
Direction: higher = stronger binding
Starting sequence: PYL1, truncated, DHFR fusion (Arabidopsis thaliana); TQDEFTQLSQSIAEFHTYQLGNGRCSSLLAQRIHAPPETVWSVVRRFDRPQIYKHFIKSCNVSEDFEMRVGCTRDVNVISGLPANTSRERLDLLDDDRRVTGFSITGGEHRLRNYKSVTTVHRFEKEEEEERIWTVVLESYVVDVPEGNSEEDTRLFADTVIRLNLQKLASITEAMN; partner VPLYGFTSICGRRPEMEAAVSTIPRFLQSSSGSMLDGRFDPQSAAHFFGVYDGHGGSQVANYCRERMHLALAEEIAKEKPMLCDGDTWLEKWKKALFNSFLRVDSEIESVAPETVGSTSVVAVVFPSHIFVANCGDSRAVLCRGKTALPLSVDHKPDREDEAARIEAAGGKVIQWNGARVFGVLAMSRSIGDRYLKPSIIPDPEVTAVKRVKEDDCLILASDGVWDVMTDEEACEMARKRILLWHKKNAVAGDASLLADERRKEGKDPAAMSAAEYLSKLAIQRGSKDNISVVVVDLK
| Substitution | relative binding score |
| --- | --- |
| R88H | 102% |
| Y115Q | -7.84% |
| V76P | -4.54% |
| T119F | 26.8% |
| F47P | -4.38% |
| K126S | 111% |
| K58H | 88.7% |
| N114Y | 41.3% |
| F124P | 75.6% |
| V142G | 71.4% |
| R49I | 80.8% |
| K54I | 7.5% |
| T39A | 98.3% |
| S11Q | 104% |
| I105E | -2.93% |
| E130I | 111% |
| P36T | 97.9% |
| E4P | 92.7% |

Sample 2
Target: CCNA2, cyclin fold, Cln2 fusion (human)
Technique: yeast growth competition, sequencing
Matrix: yeast
Notes: strong parent motif
Relative to: not given
Direction: higher = stronger binding
Starting sequence: CDKN1B docking peptide (human); PSACRNLFGPVDH; partner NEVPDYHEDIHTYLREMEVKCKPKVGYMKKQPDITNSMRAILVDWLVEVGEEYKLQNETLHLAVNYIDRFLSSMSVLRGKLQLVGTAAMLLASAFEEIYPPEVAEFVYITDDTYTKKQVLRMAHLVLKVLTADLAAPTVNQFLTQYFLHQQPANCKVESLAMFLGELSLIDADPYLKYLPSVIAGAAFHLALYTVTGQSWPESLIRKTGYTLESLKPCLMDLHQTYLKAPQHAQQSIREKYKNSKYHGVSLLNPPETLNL
| Substitution | normalised enrichment score |
| --- | --- |
| PSTCRNLFGPVDH [A3T] | 1.6 |
| PSACRNLFGPVGH [D12G] | 4.05 |
| PSACRNLFGPPDH [V11P] | 4.12 |
| PSAYRNLFGPVDH [C4Y] | 1.62 |
| PSACRNLFGPVDA [H13A] | 4.31 |
| PSACRNLVGPVDH [F8V] | -0.468 |
| PSACRNLFGPLDH [V11L] | 3.95 |
| PSACRNLFGPVCH [D12C] | 3.78 |
| PSACENLFGPVDH [R5E] | 0.379 |
| PSACRNLFGPYDH [V11Y] | 4.21 |
| ASACRNLFGPVDH [P1A] | 3.84 |
| PSACRNLFGPVYH [D12Y] | 3.81 |
| RSACRNLFGPVDH [P1R] | 4.69 |
| PSACRRLFGPVDH [N6R] | 4.33 |
| PSACRNLFGEVDH [P10E] | 3.17 |
| PSAMRNLFGPVDH [C4M] | 1.19 |
| PSACHNLFGPVDH [R5H] | 0.143 |
| PSACRNLFGHVDH [P10H] | 3.13 |

Sample 3
Target: Sal-like protein 4, full length isoform B (SALL4, Homo sapiens, UniProt Q9UJQ4-2, residues 1-616)
Technique: universal PBM
Form: double-stranded DNA, one strand shown
Matrix: in vitro
Concentration: not given
Notes: 8-mer, flanks averaged, mean of replicates
Direction: higher = stronger binding
Construct (chain): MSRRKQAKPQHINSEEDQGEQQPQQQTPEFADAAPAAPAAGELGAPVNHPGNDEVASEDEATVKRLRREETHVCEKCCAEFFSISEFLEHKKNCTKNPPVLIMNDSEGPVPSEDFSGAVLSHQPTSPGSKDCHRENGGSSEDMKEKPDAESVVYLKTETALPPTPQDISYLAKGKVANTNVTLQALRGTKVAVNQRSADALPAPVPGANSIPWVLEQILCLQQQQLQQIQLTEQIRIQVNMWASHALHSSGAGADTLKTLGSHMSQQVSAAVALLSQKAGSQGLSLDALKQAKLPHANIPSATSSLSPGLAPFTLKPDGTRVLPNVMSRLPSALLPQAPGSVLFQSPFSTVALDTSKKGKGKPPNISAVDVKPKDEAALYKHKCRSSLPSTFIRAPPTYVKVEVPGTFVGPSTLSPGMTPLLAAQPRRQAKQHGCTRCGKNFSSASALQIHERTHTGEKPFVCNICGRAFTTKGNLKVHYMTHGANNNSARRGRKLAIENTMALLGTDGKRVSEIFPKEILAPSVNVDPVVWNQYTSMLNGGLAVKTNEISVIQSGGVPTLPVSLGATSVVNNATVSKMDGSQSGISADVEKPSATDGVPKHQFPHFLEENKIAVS
| Oligonucleotide | E-score |
| --- | --- |
| ACCCCTAG | -0.123 |
| CATAGGCG | -0.0448 |
| CAGAGCAC | -0.312 |
| GATGTAGA | 0.0516 |
| AGTTAGCA | 0.0915 |
| CCGGCTAC | -0.285 |
| ACTCGGTC | -0.186 |
| TCTGAACA | 0.0829 |
| ACTAGGCT | -0.00457 |
| GTGTCACA | 0.0358 |
| GTTTTCGA | -0.00638 |
| ATTACAAT | 0.337 |
| ACTGATAC | -0.0774 |
| CGTAGGAC | -0.229 |
| GCAGGCGC | -0.307 |
| ATTTGATA | 0.305 |
| CACCGATA | -0.00417 |
| AACTACGC | 0.00032 |
| AATTAGTA | 0.336 |
| CAATGACG | -0.0249 |
| TCTTGTAA | 0.256 |
| AGGCACAT | 0.0157 |
| ATTATTAA | 0.454 |
| AGACCGTC | -0.17 |
| CACACTCA | 0.174 |

Single results of other studies
| Molecule | target | assay | test system | conditions | scale | quantity | value |
| --- | --- | --- | --- | --- | --- | --- | --- |
| PhoQ, residues 284 288 289 292 302 303 SLANKL | PhoP, residues 12 14 15 18 19 VQGLL (Escherichia coli, UniProt P23836) | Sort-seq, measured: YFP reporter | E. coli | PhoQ-PhoP variant library, together with: 10 µM Mg2+ | relative to: high Mg2+ state, higher = stronger signaling | fold induction | 18.4 |

A few entries again (sample 1):
| Substitution | relative binding score |
| --- | --- |
| R49I | 80.8% |
| K54I | 7.5% |
| T39A | 98.3% |
| S11Q | 104% |
| I105E | -2.93% |
| E130I | 111% |
| P36T | 97.9% |
| E4P | 92.7% |
